Published values of several laboratories.
Numbered parts are unrelated; each lists some results of a single study. “And” joins repeats or separate records; there may be more than shown.
UniProt Q14004, sequence (whole entry, looked up): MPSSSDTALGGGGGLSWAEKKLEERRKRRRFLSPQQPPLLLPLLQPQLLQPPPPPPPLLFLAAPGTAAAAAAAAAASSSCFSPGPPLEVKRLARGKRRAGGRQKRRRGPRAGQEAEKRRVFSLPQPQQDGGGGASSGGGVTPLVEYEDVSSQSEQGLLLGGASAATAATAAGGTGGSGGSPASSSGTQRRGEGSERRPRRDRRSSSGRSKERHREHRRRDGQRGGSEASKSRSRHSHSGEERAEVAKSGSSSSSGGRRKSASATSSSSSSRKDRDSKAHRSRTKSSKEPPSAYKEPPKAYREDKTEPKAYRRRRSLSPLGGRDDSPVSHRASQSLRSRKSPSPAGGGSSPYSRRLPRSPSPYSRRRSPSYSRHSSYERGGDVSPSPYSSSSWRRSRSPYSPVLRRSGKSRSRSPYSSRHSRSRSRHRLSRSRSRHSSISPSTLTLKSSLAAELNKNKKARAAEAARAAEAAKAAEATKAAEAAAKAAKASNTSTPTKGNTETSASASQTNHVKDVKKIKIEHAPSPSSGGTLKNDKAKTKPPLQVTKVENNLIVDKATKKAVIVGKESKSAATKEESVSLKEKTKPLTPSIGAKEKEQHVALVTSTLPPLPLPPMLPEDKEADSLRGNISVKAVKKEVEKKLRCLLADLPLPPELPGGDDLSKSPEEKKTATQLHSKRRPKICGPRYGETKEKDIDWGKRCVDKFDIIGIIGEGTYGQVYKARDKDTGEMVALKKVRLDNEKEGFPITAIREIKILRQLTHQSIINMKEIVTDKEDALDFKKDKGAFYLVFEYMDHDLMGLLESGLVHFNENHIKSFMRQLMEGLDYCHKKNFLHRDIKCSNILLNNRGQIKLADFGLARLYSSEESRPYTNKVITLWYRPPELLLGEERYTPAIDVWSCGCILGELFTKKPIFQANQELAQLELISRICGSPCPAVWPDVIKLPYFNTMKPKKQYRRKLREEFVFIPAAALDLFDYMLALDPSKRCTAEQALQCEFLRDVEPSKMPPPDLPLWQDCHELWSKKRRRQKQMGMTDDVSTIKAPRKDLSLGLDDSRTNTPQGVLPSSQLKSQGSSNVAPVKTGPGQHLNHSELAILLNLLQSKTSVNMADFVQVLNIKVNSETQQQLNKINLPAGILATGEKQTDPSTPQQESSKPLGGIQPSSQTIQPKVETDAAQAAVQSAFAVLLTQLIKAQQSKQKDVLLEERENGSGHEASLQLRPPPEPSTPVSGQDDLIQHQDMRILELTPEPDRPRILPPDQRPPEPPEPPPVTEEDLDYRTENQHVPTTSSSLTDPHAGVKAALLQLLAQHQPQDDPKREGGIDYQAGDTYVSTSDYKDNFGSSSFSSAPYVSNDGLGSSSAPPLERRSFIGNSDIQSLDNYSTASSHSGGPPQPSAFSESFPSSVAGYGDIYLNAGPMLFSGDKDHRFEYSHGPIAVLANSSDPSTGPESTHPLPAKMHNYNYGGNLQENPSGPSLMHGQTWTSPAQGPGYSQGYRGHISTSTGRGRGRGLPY

Study 1
Structure (SMILES): Cc1ccc(O)c(C)c1-c1cnc2[nH]c(-c3cnc(N4CCC(CCN5CCN(c6cc7c(cc6F)c(N6CCC(=O)NC6=O)nn7C)CC5)CC4)nc3)cc2c1C#N
Target: Membrane-associated tyrosine- and threonine-specific cdc2-inhibitory kinase (PKMYT1, Homo sapiens, UniProt Q99640)
Mode: degrader
Technique: automated immunoblot (Jess)
Baseline: GAPDH
Residues (Q99640 1-499): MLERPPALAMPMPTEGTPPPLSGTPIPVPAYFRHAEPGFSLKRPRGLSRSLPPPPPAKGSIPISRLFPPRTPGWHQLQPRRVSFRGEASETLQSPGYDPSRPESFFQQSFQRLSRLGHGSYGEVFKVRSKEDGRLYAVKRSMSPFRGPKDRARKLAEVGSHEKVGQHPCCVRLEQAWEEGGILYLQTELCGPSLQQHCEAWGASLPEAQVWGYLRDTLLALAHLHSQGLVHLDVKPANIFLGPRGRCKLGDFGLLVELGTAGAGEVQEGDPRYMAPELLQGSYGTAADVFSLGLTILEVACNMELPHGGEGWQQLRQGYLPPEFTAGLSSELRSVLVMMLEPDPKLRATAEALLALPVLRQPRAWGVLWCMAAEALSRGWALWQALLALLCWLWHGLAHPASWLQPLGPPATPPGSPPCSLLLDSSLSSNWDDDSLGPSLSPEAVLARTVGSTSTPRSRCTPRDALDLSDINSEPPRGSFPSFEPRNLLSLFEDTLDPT
It gave 24% for protein level (100 nM).
For 0.01 nM: protein level read 94.1%.
It gave 20.5% for protein level (10 nM).

Study 2
SMILES: CCN(CC)CC(=O)N1CCN(c2nc(NCc3nc4cc(Cl)c(Cl)cc4[nH]3)c3ncn(CC)c3n2)CC1
Read-out: enzyme activity
Mode: inhibitor
Technique: ADP detection
CDK9: Cyclin-dependent kinase 9 (CDK9, Homo sapiens, UniProt P50750)
UniProt P50750, sequence (whole entry, looked up): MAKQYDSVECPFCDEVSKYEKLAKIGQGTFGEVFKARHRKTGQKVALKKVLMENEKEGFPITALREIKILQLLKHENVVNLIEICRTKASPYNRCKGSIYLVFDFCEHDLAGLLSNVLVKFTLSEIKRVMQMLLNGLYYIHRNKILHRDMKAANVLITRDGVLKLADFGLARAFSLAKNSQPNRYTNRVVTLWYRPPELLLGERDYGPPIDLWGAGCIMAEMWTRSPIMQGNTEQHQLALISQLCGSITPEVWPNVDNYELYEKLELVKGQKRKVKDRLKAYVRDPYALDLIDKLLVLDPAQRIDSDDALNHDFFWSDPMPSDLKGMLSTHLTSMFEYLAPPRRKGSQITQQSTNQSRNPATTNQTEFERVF
CDK7: Cyclin-dependent kinase 7 (CDK7, Homo sapiens, UniProt P50613)
UniProt P50613, sequence (whole entry, looked up): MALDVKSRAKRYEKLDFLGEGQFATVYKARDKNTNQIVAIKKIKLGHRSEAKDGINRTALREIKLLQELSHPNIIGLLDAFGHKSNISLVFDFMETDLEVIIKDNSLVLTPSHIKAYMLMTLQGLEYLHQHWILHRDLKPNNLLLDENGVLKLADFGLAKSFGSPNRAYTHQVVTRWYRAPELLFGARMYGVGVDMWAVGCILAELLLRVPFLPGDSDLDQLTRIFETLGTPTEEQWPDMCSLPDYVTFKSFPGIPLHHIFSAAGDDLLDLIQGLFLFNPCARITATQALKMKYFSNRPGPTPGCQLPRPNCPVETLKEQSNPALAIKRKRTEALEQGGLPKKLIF
CDK2: Cyclin-dependent kinase 2 (CDK2, Homo sapiens, UniProt P24941)
It gave 83% for inhibition (CDK13 (Homo sapiens, UniProt Q14004); 3.333 µM).
CDK9; 500 pM — inhibition: 0.6%.
The inhibition was 38.3% (CDK7; 0.3704 µM).
The inhibition was 31% (CDK9; 1.111 µM).
For CDK9; 4.6 nM: inhibition read 1.6%.
It gave 5.4% for inhibition (CDK2; 500 pM).
CDK2; 3.333 µM — inhibition: 0.8%.
It gave 78% for inhibition (CDK7; 10 µM).

Study 3
SMILES: CCN1/C(=C/C=C2\CCCC(/C=C/C3=[N+](CC)c4ccccc4C3(C)C)=C2NCCCCCCCCN2CCC(Nc3nc4ccccc4n3Cc3ccc(F)cc3)CC2)C(C)(C)c2ccccc21
Cell line: U-87 MG
Concentration: concentration not given
Baseline: DMSO
The “log2 fold change” was 4.83 (measured: SMIM34A mRNA).
The “log2 fold change” was 1.19 (measured: ACSL1 mRNA).
The “log2 fold change” was 0.808 (measured: SNX11 mRNA).
For measured: ELFN2 mRNA: “log2 fold change” read -2.68.
The “log2 fold change” was 2.82 (measured: DNAJB9 mRNA).
The “log2 fold change” was -1.63 (measured: NPTXR mRNA).
measured: RFFL mRNA — “log2 fold change”: 1.01.
The “log2 fold change” was 1.11 (measured: PELI2 mRNA).
It gave 3.01 for “log2 fold change” (measured: IL1RL1 mRNA).
For measured: HYAL2 mRNA: “log2 fold change” read -0.872.
measured: RGCC mRNA — “log2 fold change”: -3.09.
For measured: CDK13 mRNA: “log2 fold change” read 0.808.

Mixed results
The stride length of `Cc1nc(C)c(C=[N+]([O-])C(C)(C)C)nc1C` is reported as 5.49 cm and 6.26 cm and 5.53 cm and 6.59 cm and 6.36 cm and 5.29 cm and 5.82 cm (footprint test; MPTP-induced Parkinson's disease mouse model; 10 mg/kg).

Repeated from above (study 3):
The “log2 fold change” was -1.63 (measured: NPTXR mRNA).
The “log2 fold change” was 1.19 (measured: ACSL1 mRNA).
